Published values from different studies.
Parts stem from different laboratories: compare values within a part only.

Study 1 — method: RNA Bind-n-Seq; form: RNA; matrix: in vitro; tested at: 1 µM; setting: whole 134-nt RNA, ends assumed; together with: 150 mM KCl; relative to: input library; direction: higher = stronger binding
Target: Ras GTPase-activating protein-binding protein 1, RRM domain (G3BP1, Homo sapiens, UniProt Q13283)
Sequence of UniProt Q13283 (whole entry, looked up): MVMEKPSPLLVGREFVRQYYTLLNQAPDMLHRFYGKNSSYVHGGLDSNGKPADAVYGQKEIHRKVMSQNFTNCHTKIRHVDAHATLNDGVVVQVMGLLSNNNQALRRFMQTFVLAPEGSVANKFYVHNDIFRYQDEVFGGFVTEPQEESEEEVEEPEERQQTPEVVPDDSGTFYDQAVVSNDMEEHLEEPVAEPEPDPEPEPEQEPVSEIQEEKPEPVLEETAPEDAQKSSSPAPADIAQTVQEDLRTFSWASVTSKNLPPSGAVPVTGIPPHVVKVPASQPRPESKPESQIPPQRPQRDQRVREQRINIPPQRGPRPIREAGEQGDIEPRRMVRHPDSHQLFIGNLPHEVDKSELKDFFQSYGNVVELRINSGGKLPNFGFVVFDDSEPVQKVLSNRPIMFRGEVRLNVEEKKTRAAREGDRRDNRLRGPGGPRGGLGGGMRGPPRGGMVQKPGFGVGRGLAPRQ
All sequences stand within: GGGAGUUCUACAGUCCGACGAUC … UGGAAUUCUCGGGUGUCAAGG
Sequence	log2 enrichment
CAAGUCCUGUGCUACACAUCGUAUGUACCGAAUCGGGUGGGUUUUUUUGGGUGGGAAAGUAUUAUGUUACGCCGUUCGGAUCUGCACUUC	0.531
UCUAUGUAGCAUCCAGGUACUACUUCCUUUGGAAUGUCAGUAUUUAAUCUGAGCAAUGCGAUUGUGGGCAGUGGAAUCCUUGGGCUUUCU	-0.133
CAAGUCCUGUGCUACACAUCGUAUGUACCGAAUCGGGGCCGGGGCCGGGGCCGGGAAAGUAUUAUGUUACGCCGUUCGGAUCUGCACUUC	-1.68
AAGUCCUGUGCUACACAUCGUAUGUACCGAAUCGGGAAAAAAAGGGAGGGAAAGGGAAAGUAUUAUGUUACGCCGUUCGGAUCUGCACUU	0.539
UGUGCUACACAUCGUAUGUACCGAAUCGGGGUUUUUGGGGUUUUUUUGGGGUUUUUUUGGGGAAAGUAUUAUGUUACGCCGUUCGGAUCU	1.34
CACAGACAACACGCACCCACACAGACACAGAGGGAAGGGGUUGGGAUGGGGACAGGGUGCACAGCAAGGCGGGGUAGGACCCCAGCCCCU	0.0375
AAGUCCUGUGCUACACAUCGUAUGUACCGAAUCGGGGUGGGGUUUGGGGAAAGGGGAAAGUAUUAUGUUACGCCGUUCGGAUCUGCACUU	1.35
ACCAUGCAGGUGGGCAUCUUUGGGAAGUGGGGCAAGGGGGGGAUAGGGAGGGGGGUAACACUUUGGGAACAGGUGGUCCCAGGUCGUUGC	1.28
UACAUUCUUUACCCCUUGUUUUAAUUUGAACCCCACCAUAUGGAUUUUUUUCCUUAAGAAAAUCUCCUUUUAGGAGAUCAUGGUGUCACA	-0.403
UCAAGUCCUGUGCUACACAUCGUAUGUACCGAAUCGGGUGGGAAAGGGUUUGGGAAAGUAUUAUGUUACGCCGUUCGGAUCUGCACUUCC	0.668
UUGUCCCGGAUGGGCAGCCUGCGGGCUCCCGUGGACGAGGACCGCCUGUCCCCGCUGGUGGCGGCCGACUCGCUCCUGGAGCAUGUGCGG	-0.395
UUCUCUGCCGGCUCAGAGGAGAGGAGACGCCGUGAGCGGGACGACCAGAUGUACCGAGAGCGGCUGCGCACCUUGCUGGUCAUCGCGGUU	-0.516
UCCUGUGCUACACAUCGUAUGUACCGAAUCGGGGUUUUUUUGGGGUUUUUGGGGUGGGGAAAGUAUUAUGUUACGCCGUUCGGAUCUGCA	0.413
GCAGGAAGUAAAAACAAGUGGAAAUGCUUCGGAUAGUGGCAGGGGUGGGGGUUGCUAAGGAAAGGGUGGGAUGGGAGUGGGUAAAGAGUU	1.06

Study 2 — method: protein-binding microarray; form: double-stranded DNA, one strand shown; matrix: in vitro; tested at: 940 nM top; setting: 60-bp whole probe; together with: salmon DNA 0.4 mg/ml; relative to: random background probes; direction: higher = stronger binding; all sequences stand within: GCCTAGCAC … GTCTTGATTCGCTTGACGCTGCTG
Target: Interferon regulatory factor 5, full length, phosphomimetic (IRF5, Homo sapiens, UniProt Q13568-2, residues 1-514, S451D/S453D/S456D/S462D)
Sequence	fitted relative affinity
GAGAATTTCCACTTTGACTTGTGCTAG	0.869 z-score
TCTCCTACAGGTTCTCTGAGAGTGCTA	0.731 z-score
GGCGCTTTTTTTCCGAGTGAGTGCTAG	0.674 z-score
TTAGAACGGAGTCTCGATTAGTGCTAG	2.05 z-score
TCACCTTTCAATCCTAGACTGTGCTAG	1.23 z-score
GACGGTATCCATATCCTGACGTGCTAG	0.491 z-score
GACGCTTCCGGTTTCGGGACGTGCTAG	4.22 z-score
ACATCTCTCTTAAATAGGGACGTGCTA	0.808 z-score
TGGGCTACCTCTCTTAGAATGTGCTAG	-0.221 z-score
TTAGGTCACCTTTTCCTTTAGTGCTAG	0.344 z-score
TCATAAATGATATATATCACTGTGCTA	0.228 z-score
AACGGTCTCCTTTTCCTGACGTGCTAG	0.585 z-score
TTACAACTGGGGTTTCGATTAGTGCTA	5.91 z-score
GACGATTTCAGACTGGAGACGTGCTAG	-0.271 z-score
GACGAACTGAGACTGAAGACGTGCTAG	-0.102 z-score
CTAGGTTTCGGTTTCGGTTAGTGCTAG	15.6 z-score
GACGGTTTCGGCCTCGGGACGTGCTAG	8.09 z-score
TTAGGTGTCGGTTTCGGTTAGTGCTAG	7.76 z-score
TTGCAGATGACGAAACTGAAGTGCTAG	0.228 z-score
TTAGGTTTCGGTATCGGTTAGTGCTAG	15.5 z-score
TCAGCTCTGTGCATAGGACTGTGCTAG	-0.281 z-score

Study 3 — method: RNA Bind-n-Seq; form: RNA; matrix: in vitro; tested at: 365 nM; relative to: no-protein control; direction: higher = stronger binding
Target: RNA binding protein fox-1 homolog 2, RRM domain, GST-SBP tag (RBFOX2, Homo sapiens, UniProt O43251-10, residues 100-194)
Setting: natural RNA segment, single round, ends assumed
All sequences stand within: GGGAGUUCUACAGUCCGACGAUC … UGGAAUUCUCGGGUGCCAA
Construct (chain): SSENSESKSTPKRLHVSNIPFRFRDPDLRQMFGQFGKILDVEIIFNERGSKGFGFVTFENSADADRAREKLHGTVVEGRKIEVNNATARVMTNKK
Sequence	RBNS enrichment (R)
CUUUAAAAUGUUGUAUUUUUUCCCUGAAAUAAACUUUUAUGAUUUAAUGUCUUGGAAAAAGACUCACAUGAAAAGUGGCUUUUAUAUUUGGUAGGAUAAAGCCAUUGUCC	0.54
UUUUUUUUAAGAAAAGAAAUAAAGAUUCAUCCCCUGGCCUCUACUUCAGAUUCGAAGUGGGAGGCAACUCAAUGUGCCUGGGGCUCGCCAUGGGCCCACAGAGUCUCGCU	0.198
AUUACUCCACUUUUUUUUAAGUGUCCUUCCAAUAACUAAUGCCACUCAUCAGCAUUGUCCUCUUUGGAAAUUUUGUCCUCCUGAGGAAAUGCACUUGACGAGUGCUGAAA	0.359
AACUGUGCUUCCCUCAGCUGGUCGCCACCCCUGGGCCUUUCCAUCUCCUGUUUUGCAACCAGGAUGAGGACCCCUCCAUCUCCGUGGAUUACUGAGGGGGGCUCUUGCUU	0.196
CUAGAGAACUAUGUUCUUCCCUGACUUUAGGGAAGGUGAAUGUGUUCCCGUCCUCCCGCAGUCAGAAAGGAGACUCUGCCUCCCUCCUCCUCACUGAGUGCCUCAUCCUA	1.07
UGAUUUCAUUUAGGACAAAUGUGCAUGUUCUGAAUGAAAUGAGAGAAAUGCUGUAUUUAUUGAUAACAUUGGCUAGGAGACUGAUGGACUGGCACACUUUCCUGUUUUAA	0.617
GGUCUUGGUAGCCCUAUUAUAUCAUUGCAGACACAGUGUUGUGCAUGUGUGUAUUGUAUAUGUGCACCAGCAUCAAACAUUGUGUAUCUGGAAGGAAAGCAGCAUGUUCC	13.3
UGGUGCUAGUGCAUGUACCCUGUGGUAUUGCCCCUCUGUCCGUAGUGUGAACUGUCCUGUGAGCUUUAUGUCAGGAGACUGUGACCUUCAUGUCCAGCUUCAAAGAGUUG	4.34
UAAGUUGGUCUUUCCCGGUGCUAUACUUGCCUCCUCUCCACGGAAGAAUUGUUCAGGAGAUGCGCUUGGGGUGAUGACUUCCUUAAAUACACGCUGUAGGGGGUGAAGAG	0.565
CAAGCUCUAAGACUCAAAGAAAUGGAACCUCUGCCCCAAACACUAGAGAAGCAGGAGAACAGACAAUCUGGUGUCCAGCCCUAAAGAACCACCAGGCGCUGUUAAGCAAU	0.25
UCCUGUCCUUCCUUGAAAUUGCUGAUUGUUCUGCUCCCUCUACAGAUAUUUAUAUCAAUUCCUACAGCUUUCCCCUGCCAUCCCUGAACUCUUUCUAGCCCUUUUAGAUU	1.05
CCAGUCUCAUUCCUCCCCAGGAGUGAAACUUGCUUCAGCUGAAAAGGUUGGGUGCAUUGUCAGUAAAAAGGGCUUAUUUGUUUCAUUUUACUUUCCUGCAAAAUUUUCUU	0.208

Study 4 — method: protein binding microarray; form: double-stranded DNA, one strand shown; matrix: in vitro; tested at: not given; relative to: not given; direction: higher = stronger binding
Target: Histone acetyltransferase KAT6A, winged helix 1, GST fusion (KAT6A, Homo sapiens, UniProt Q92794, residues 1-85)
Setting: 8-mer, flanks averaged, mean of 2 arrays, mostly near background
Construct (chain): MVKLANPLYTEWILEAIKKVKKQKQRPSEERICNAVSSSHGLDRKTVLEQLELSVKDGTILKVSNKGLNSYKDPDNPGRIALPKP
Sequence	E-score
GGACCTTA	0.0325
GGGTTGAA	0.0661
CATTTCGA	-0.129
ATGAAGTA	-0.0596
AATAGAGC	-0.134
CCGGGCAG	0.246
GAAGTTGA	-0.212
ATTTTACA	-0.204
CTTGTGGC	-0.193
GACCACTA	-0.26
CCGTTCTA	0.177
ACATGGCC	0.0844
AGCTTAGG	-0.11
AGAGAACG	-0.0346
GGCTCCCA	0.101
TACTCGAA	-0.0645
AATACGGG	0.177
TCGCCCAA	-0.0154
TAGAGTAA	-0.0457
CTCAAAAA	-0.165
ATTTTGTG	-0.187
ACAGGTTC	-0.178
ATAAGGGA	-0.167
CGTGTCGC	0.276
AAACCAAA	-0.151

Other studies, line by line
Molecule	target	test	test system	setting	scale	quantity	value
PhoQ, residues 284 288 289 292 302 303 AGGCYF	PhoP, residues 12 14 15 18 19 IFFTR (Escherichia coli, UniProt P23836)	Sort-seq, refers to: YFP reporter	E. coli	PhoQ-PhoP variant library, together with: 10 µM Mg2+	relative to: high Mg2+ state, higher = stronger signaling	fold induction	15.2

Some of these lines once more (study 4):
Sequence	E-score
GGCTCCCA	0.101
AATACGGG	0.177
CTCAAAAA	-0.165
AGCTTAGG	-0.11
ATTTTGTG	-0.187
AATAGAGC	-0.134
CCGGGCAG	0.246
CATTTCGA	-0.129
GGGTTGAA	0.0661
CCGTTCTA	0.177
AGAGAACG	-0.0346
